{"data": "Measurements pooled from the literature", "cell line": "MDA-MB-231", "note": "Compare with care: the assays were run in different laboratories. Several values in a cell are separate wells, animals, samples, runs or records. ± marks the error that the study gave."}
{"SMILES": "OCc1ccc(Nc2ccc3c(Nc4cccc(C(F)(F)F)c4)ncnc3c2)cc1", "assay": "annexin V-PE/DAPI", "setting": "concentration not given, 24 h", "measurement": "live cells", "value": "67.7%"}
{"SMILES": "CC(C)(C)OC(=O)N1CCC(Oc2ccc(Cl)cc2C(=O)N[C@@H](Cc2ccccc2)C(=O)Nc2ccc([N+](=O)[O-])cc2Cl)CC1", "setting": "up to 10 µM, 72 h", "measurement": "antiproliferative activity", "value": "inactive"}
{"SMILES": "Cc1cc(C)n(C(=S)[S][Au][PH](CCCCCC[PH]([Au][S]C(=S)n2nc(C)cc2C)(c2ccccc2)c2ccccc2)(c2ccccc2)c2ccccc2)n1", "assay": "cell growth", "measurement": "GI50", "value": "1420 nM"}
{"SMILES": "O=C1NC(c2ccccc2)(c2ccccc2)C(=O)N1Cc1cn(-c2cc3ccccc3oc2=O)nn1", "assay": "NCI60 single dose screen", "setting": "10 µM", "measurement": "growth percentage", "value": "75.9%"}
{"SMILES": "C=C1CN(S(=O)(=O)c2ccc(C)cc2)CCc2cc(-c3ccccc3)cc(n2)CCN(S(=O)(=O)c2ccc(C)cc2)C1.Cl", "setting": "4 µM, 48 h, with: progranulin 1 µg/mL", "measurement": "mammosphere formation", "value": "decreased"}
{"SMILES": "CCCN1CCN(c2ccc3[nH]c(-c4ccc5[nH]c(-c6ccc(OCC)c(OCC)c6)nc5c4)nc3c2)CC1", "assay": "SRB", "setting": "10 µM, 48 h", "measurement": "growth percent", "value": "-80.2%"}
{"SMILES": "CC(C)(C)OC(=O)NCCOc1ccc(Cl)cc1C(=O)N[C@@H](Cc1ccccc1)C(=O)Nc1ccc([N+](=O)[O-])cc1Cl", "setting": "up to 10 µM, 72 h", "measurement": "antiproliferative activity", "value": "inactive"}
{"SMILES": "CCc1c(C)c2ccc(OCC(=O)NNC(=S)Nc3ccccc3)c(C)c2oc1=O", "assay": "cell viability, MTT", "measurement": "IC50", "value": "88900 nM"}
{"SMILES": "O=c1ccn(Cc2cn(-c3cc4ccccc4oc3=O)nn2)c(=O)[nH]1", "assay": "NCI60 single dose screen", "setting": "10 µM", "measurement": "growth percentage", "value": "93.1%"}
{"SMILES": "CO[C@H]1[C@H](O[C@H]([C@H]2O[C@@H](n3ccc(=O)[nH]c3=O)[C@H](O)[C@@H]2O)[C@H](NCCCNC(=O)[C@@H](NC(=O)[C@@H](NC(=O)N[C@H](C(=O)O)C(C)C)[C@@H]2CCN=C(N)N2)[C@@H](OC(=O)CCCCCCCCCCCCN(O)C(=N)N)C(C)C)C(=O)O)O[C@H](CN)[C@H]1O", "assay": "Boyden chamber", "setting": "1.0 µM, 24 h", "measurement": "migration inhibition", "value": "82%"}
{"SMILES": "O=P(O)(O)C(O)(Cn1ccnc1)P(=O)(O)O", "assay": "AlamarBlue", "setting": "7.5 µM, 72 h", "scale": "relative to: control", "measurement": "viability", "value": "83 ± 1%"}
{"SMILES": "O=C1C[C@@H](c2ccc(O)cc2)Oc2cc(O)cc(O)c21", "assay": "H2DCFDA flow cytometry", "setting": "concentration not given, 48 h", "measurement": "ROS level", "value": "57.3%"}
{"SMILES": "CCCCN1CCN(c2ccc3[nH]c(-c4ccc5[nH]c(-c6ccc(OCC)c(OCC)c6)nc5c4)nc3c2)CC1", "assay": "SRB", "setting": "10 µM, 48 h", "measurement": "growth percent", "value": "-81.2%"}
{"SMILES": "COc1cnc2cccc(N3CCc4c(cc(Cn5ccnc5C)cc4-c4cn(C)nc4C(F)(F)F)C3=O)c2c1", "assay": "cell growth, inhibitor", "setting": "120 h", "measurement": "EC50", "value": "> 30000 nM"}
{"SMILES": "Nc1ccccc1NC(=O)c1ccc(CNc2ccc(NC3=C(Cl)C(=O)c4cccnc4C3=O)cc2)cc1", "assay": "annexin V/PI staining, refers to: annexin V-/PI+", "setting": "8 µM, 72 h", "measurement": "necrotic cells", "value": "0.39%"}
{"SMILES": "C=C1CN(S(=O)(=O)c2ccc(OC)cc2)CCCN(CC2CCCCC2)CCCN(S(=O)(=O)c2ccc(N(C)C)cc2)C1.Cl", "setting": "1 µM, 48 h, with: progranulin 1 µg/mL", "measurement": "mammosphere formation", "value": "inhibited"}
{"SMILES": "CCc1c(C)c2ccc(OCC=Cc3ccccc3)c(C)c2oc1=O", "assay": "MTT", "measurement": "IC50", "value": "194 µg/mL"}
{"SMILES": "CCCCCCCC(=O)Oc1c(C)c(O)c(C(=O)/C=C/c2ccccc2)c(OC)c1C", "scale": "relative to: CL over MDA-MB-231", "measurement": "selectivity index", "value": 0.97}
{"SMILES": "COc1cc(C2C3=C(COC3=O)N(CCO)c3cc4c(cc32)CCC4)cc(OC)c1OC (centres unmarked)", "assay": "colony formation", "setting": "0.1 to 0.5 µM, 6 to 10 days", "measurement": "clonogenic growth", "value": "inhibited"}
{"SMILES": "Cc1cc(NS(=O)(=O)c2ccc(NC(=O)/C(C#N)=C/c3ccc(N4CCOCC4)cc3)cc2)no1", "assay": "cytotoxicity, MTT", "scale": "relative to: HSF over MDA-MB-231 IC50", "measurement": "selectivity index", "value": "> 2.4"}
{"SMILES": "Cc1c(Cc2ccccc2)c(=O)oc2c(C)c(OCC(=O)NN=Cc3ccco3)ccc12", "assay": "cell viability, MTT", "measurement": "IC50", "value": "11700 nM"}
{"SMILES": "CN(C)c1ccc2cc(C(=O)NS(=O)(=O)c3ccccc3-c3ccccc3)oc2c1", "assay": "cell proliferation", "setting": "concentration not given", "measurement": "maximal inhibition", "value": "0%"}
{"SMILES": "CCCCCCCCCCCCCCCc1cccc(O)c1C(=O)O", "assay": "flow cytometry", "setting": "10 µM, 24 h", "measurement": "cell cycle progression", "value": "no effect"}
{"SMILES": "C#C[C@@]1(O)[C@@H](CO)O[C@@H](n2cc(Cl)c3c(N)ncnc32)[C@@H]1O", "assay": "cell growth, SRB", "measurement": "TGI", "value": "1010 nM and 893 nM"}
{"SMILES": "O=C(CCCCCCCCC(=O)Nc1ccc(NC2=C(Cl)C(=O)c3cccnc3C2=O)cc1)NO", "assay": "MTT", "setting": "8 µM, 48 h", "measurement": "growth inhibition", "value": "28%"}
{"SMILES": "CN1CCN(c2ccc3[nH]c(-c4ccc5[nH]c(-c6ccc(C(F)(F)F)cc6)nc5c4)nc3c2)CC1", "assay": "SRB", "setting": "10 µM, 48 h", "measurement": "growth percent", "value": "82%"}
{"SMILES": "CCCNC(=O)[C@H]1O[C@@H]1C(=O)N[C@H](C(=O)N1CCC[C@H]1C(=O)OC)[C@@H](C)CC", "assay": "cell viability, MTT", "setting": "concentration not given, 4 h, irradiated 15 min up to 470 nm", "measurement": "EC50", "value": "> 100000 nM"}
{"SMILES": "C#C[C@@]1(O)[C@@H](CO)O[C@@H](n2cc(Br)c3c(N)ncnc32)[C@@H]1O", "assay": "cell growth, SRB", "measurement": "TGI", "value": "> 100000 nM"}
{"SMILES": "C=CCNC(=S)NNC(=O)COc1ccc2c(C)c(CC)c(=O)oc2c1C", "assay": "MTT", "measurement": "IC50", "value": "93.9 µg/mL"}
{"SMILES": "O=C(Cc1ccccc1)Nc1nnc(CCSCCc2nnc(NC(=O)Cc3ccccc3)s2)s1", "assay": "cell proliferation, inhibitor, cell counting", "setting": "144 h", "measurement": "EC50", "value": "2100 nM"}
{"SMILES": "COc1c(C)c(OS(=O)(=O)c2ccc3ccccc3c2)c(C)c(O)c1C(=O)/C=C/c1ccccc1", "scale": "relative to: CL over MDA-MB-231", "measurement": "selectivity index", "value": 0.76}
{"SMILES": "CCCN1CCN(c2ccc3[nH]c(-c4ccc5[nH]c(-c6ccc(C(F)(F)F)cc6)nc5c4)nc3c2)CC1", "assay": "SRB", "setting": "10 µM, 48 h", "measurement": "growth percent", "value": "-86.9%"}
{"SMILES": "CC(C)[C@H](NC(=O)c1cc(Cl)ccc1OCCNC(=O)OC(C)(C)C)C(=O)Nc1ccc([N+](=O)[O-])cc1Cl", "assay": "Western blot", "setting": "up to 10 µM, 24 h", "measurement": "total STAT3 level", "value": "no effect"}
{"SMILES": "COc1c(C)c(OC(C)=O)c(C)c(O)c1C(=O)/C=C/c1ccccc1", "scale": "relative to: CL over MDA-MB-231", "measurement": "selectivity index", "value": 0.77}
{"SMILES": "Cc1cc(C(=O)NCc2ccc(CNS(=O)(=O)c3ccc4c(c3)CCO4)cc2)n(C)n1", "assay": "Matrigel invasion", "setting": "0.1 µM, 22 h, with: CXCL12α 200 ng/mL", "measurement": "inhibition", "value": "~55%"}
{"SMILES": "COc1c(C)c(OC(C)=O)c(C)c(OC(C)=O)c1C(=O)/C=C/c1ccccc1", "scale": "relative to: CL over MDA-MB-231", "measurement": "selectivity index", "value": 0.92}
{"SMILES": "C=CCn1c(=O)c2cnc(Nc3ccc(N4CCN(C)CC4)cc3)nc2n1-c1ccc2c(n1)[C@@](O)(CC)CC2", "assay": "flow cytometry", "setting": "concentration not given", "measurement": "G1 phase mitotic cells", "value": "0.39%"}
{"SMILES": "Cc1[nH]c2ccccc2c1C1=C(Cl)C(=O)C(Cl)=C(N2CCOCC2)C1=O", "assay": "JC-1", "setting": "0.1 and 1 µM, 24 h", "measurement": "mitochondrial membrane potential", "value": "decreased"}
